Results from different studies.
Each line is one published result; not all experiments were run side by side.
MTOR with FKBP12: Serine/threonine-protein kinase mTOR, with FKBP12 (MTOR, Homo sapiens, UniProt P42345)
MTOR: Serine/threonine-protein kinase mTOR (MTOR, Homo sapiens, UniProt P42345)

| Structure (SMILES) | target | assay | test system | setting | how to read | quantity | result |
| --- | --- | --- | --- | --- | --- | --- | --- |
| Cc1cnc(NC2CCOCC2)nc1-n1cnc(C(=O)NC(CN)c2cc(F)cc(Cl)c2)c1 (stereo not shown) | MTOR with FKBP12 | radiometric |  | 1 µM |  | remaining activity | 108% |
| Cc1ccc(C(=O)NCc2ccsc2)cc1C#Cc1cn(C(C)C)c2ncnc(N)c12 | MTOR with FKBP12 | kinase activity |  | 1 µM, with: ATP at Km |  | remaining activity | 109% |
| CCCOc1ccc(OC)c(F)c1C(=O)c1ccc(C(=O)N[C@@H]2CNC[C@H]2NC(=O)c2ccc3[nH]ncc3c2)cc1 | MTOR with FKBP12 | kinase activity |  | 10 µM |  | remaining activity | 59% |
| C=CC(=O)N1CCC(C(=O)NCC(=O)N2CCN(c3nc(-c4cnc(N)nc4C(F)F)nc(N4CCOCC4)n3)CC2)CC1 | MTOR |  |  | 1 µM |  | remaining activity | 1.2% |
| Cc1ccc(NC(=O)c2ccc(C)c(C(F)(F)F)c2)cc1C#Cc1nn(C2CCC(O)CC2)c2ncnc(N)c12 (stereo not shown) | MTOR with FKBP12 | enzyme activity |  | 10 µM, with: ATP 10 µM |  | remaining activity | 119% |
| C=CC(=O)N1CCC(COCC(=O)N2CCN(c3nc(-c4cnc(N)nc4C(F)F)nc(N4CCOC[C@@H]4C)n3)CC2)CC1 | MTOR | enzyme activity |  | 1 µM |  | remaining activity | 4.5% |
| COc1ccc2oc(-c3ccc4nc(N)oc4c3)c/c(=N\c3ccccc3NC(=O)CCN)c2c1 | MTOR with FKBP12 | kinase activity |  | 1 µM | baseline: untreated control | remaining activity | 82% |
| Cc1nc(NC(=O)N2CCC[C@H]2C(N)=O)sc1-c1ccnc(C(C)(C)C(F)(F)F)c1 | MTOR |  |  | 10 µM |  | remaining activity | 12% |
| Cc1cc(Nc2cc(N3CCN(C)CC3)nc(Sc3ccc(NC(=O)C4CC4)cc3)n2)[nH]n1 | MTOR | kinase activity |  | 0.03 µM | baseline: control | remaining activity | 104% |
| c1cnc2ccc(Nc3nc(NC4CC4)c4nc[nH]c4n3)cc2c1 | MTOR | kinase activity |  | 1 µM | baseline: control | remaining activity | 86% |
| Cc1cc(NC(=O)c2cccc3cc(-c4cccc5[nH]nc(N)c45)ccc23)ccc1F | MTOR with FKBP12 | enzyme activity, kinase profiling panel |  | 0.1 µM |  | remaining activity | 101% |
| COc1cc(-c2cncc3c2CN(C)Cc2cc(N4CCNCC4)ccc2-3)cc(OC)c1OC | MTOR with FKBP12 | enzyme activity |  | 1 µM, with: 10 µM ATP | baseline: DMSO | remaining activity | 103% |
| O=C(NC1CCC1)c1ccc2nc(-c3cccc(NS(=O)(=O)NCCN4CCCCC4)c3)cn2c1 | MTOR | enzyme activity |  | 10 µM |  | remaining activity | 62% |
| CCN(CC)c1ccc(C2=NNC(=O)CC2C)cc1[N+](=O)[O-] (stereo not shown) | MTOR with FKBP12 | kinase activity, inhibitor |  | 10 µM |  | remaining activity | 110% |
| CCN1CCN(Cc2ccc(NC(=O)c3ccc(C)c(Oc4ccnc5[nH]ccc45)c3)cc2C(F)(F)F)CC1 | MTOR |  | Huh-7 | 1 µM |  | inhibition | < 35% |
| COc1cc(Cl)c(C(=O)N[C@@H](CN[C@H]2CC[C@@H](N)CC2)Cc2ccc(C#N)cc2)cc1-c1ccc(CN[C@H](C)c2ccc(C)cc2)o1 | MTOR with FKBP12 | enzyme activity, KinaseProfiler panel |  | 1 µM |  | remaining activity | 108% |
